Results pooled from the literature.
A part holds a random share of what one study measured. Positions count from the first letter of the parent shown.

Sample 1
Target: CCND1, cyclin fold, Cln2 fusion (human)
Technique: yeast growth competition, sequencing
Matrix: yeast
Setting: weak parent motif
Baseline: not given
Reading: higher = stronger binding
Starting sequence: CDC6 docking peptide (human); TLKGRRLVFDNQL; partner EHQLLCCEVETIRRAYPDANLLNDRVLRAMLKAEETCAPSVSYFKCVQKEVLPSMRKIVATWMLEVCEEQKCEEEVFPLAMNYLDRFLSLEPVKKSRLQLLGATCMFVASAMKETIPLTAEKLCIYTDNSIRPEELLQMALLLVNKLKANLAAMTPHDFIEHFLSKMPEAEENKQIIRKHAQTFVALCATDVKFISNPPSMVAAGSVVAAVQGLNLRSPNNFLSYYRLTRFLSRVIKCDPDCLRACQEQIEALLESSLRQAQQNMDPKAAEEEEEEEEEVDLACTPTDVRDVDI
Variant | normalised enrichment score
L2R | 1.08
D10M | 0.392
L2T | 0.0592
K3C | 0.953
R5E | 0.44
D10A | -0.516
L13H | -0.21
V8S | 1.01
V8W | 0.413
F9L | 0.292
N11A | 1.09
L13Q | 1.17
G4Q | 0.451
L7F | -0.0927
L7H | -0.276
V8A | -0.369
Q12F | 0.143
V8Q | 0.0555
G4K | 0.129
L2D | 0.113
N11M | 0.342
L2Q | -0.0627
V8K | 0.243
R5W | 0.448
T1F | -0.193

Sample 2
Target: Interferon regulatory factor 7, full length, phosphomimetic (IRF7, Homo sapiens, UniProt Q92985, residues 1-503, S101K/S471D/S472D/S475D/S476D/S477D/S483D/S484D/S487D)
Technique: protein-binding microarray
Molecule type: double-stranded DNA, one strand shown
Matrix: in vitro
Concentration: 250 nM
Setting: 60-bp whole probe
With: salmon DNA 0.4 mg/ml
Baseline: random background probes
Reading: higher = stronger binding
Constant ends, left off below: GCCTAGCAC … GTCTTGATTCGCTTGACGCTGCTG
Construct (chain): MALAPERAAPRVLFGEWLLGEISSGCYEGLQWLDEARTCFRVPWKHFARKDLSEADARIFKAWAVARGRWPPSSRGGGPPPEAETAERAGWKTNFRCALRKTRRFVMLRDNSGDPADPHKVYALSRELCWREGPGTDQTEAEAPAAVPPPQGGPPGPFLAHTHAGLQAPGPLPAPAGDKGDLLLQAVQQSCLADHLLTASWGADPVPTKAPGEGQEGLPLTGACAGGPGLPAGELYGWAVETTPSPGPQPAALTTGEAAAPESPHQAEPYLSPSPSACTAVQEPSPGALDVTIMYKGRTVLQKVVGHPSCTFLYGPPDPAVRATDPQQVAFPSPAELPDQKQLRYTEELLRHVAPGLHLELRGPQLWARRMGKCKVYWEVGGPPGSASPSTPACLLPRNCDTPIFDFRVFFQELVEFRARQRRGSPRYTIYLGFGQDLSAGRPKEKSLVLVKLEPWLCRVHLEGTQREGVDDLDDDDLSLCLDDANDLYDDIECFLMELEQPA
Oligonucleotide | log fluorescence
TTACATTTCAGTATCGATTAGTGCTAG | 1.41 z-score
GACGATTTGGGGTATCGAGACGTGCTA | -0.316 z-score
TTAGGTCTCCTATTCCTTTAGTGCTAG | 0.897 z-score
TTAGATATCAGACTGGATAAGTGCTAG | -0.14 z-score
TCATTTTTACCTGTGGTACTGTGCTAG | 0.481 z-score
GACCGTCTCGGACTGGGGACGTGCTAG | 0.239 z-score
AGGCTCATACATCTGGGTGGGTGCTAG | 0.33 z-score
CCCTTTTCATGCTCTTATATAGTGCTA | 1.46 z-score
TTAGGTTTCGGTATCGGTAAGTGCTAG | 10.8 z-score
TTAGGCTTCGACTTTCGGTTAGTGCTA | 1.37 z-score
TTAGGTCTCCTACTGGTTTAGTGCTAG | -0.295 z-score
TTAGATATCGCGTATCGATTAGTGCTA | 0.137 z-score
TTAGGACTGGCCACTGGGTTAGTGCTA | -0.674 z-score
TTAGGTTTCGGACTGGGTTAGTGCTAG | 3.96 z-score
TCAAATATATATTCATAACTGTGCTAG | 0.451 z-score
TCCCAATTCTCTTTTCACTTGTGCTAG | 1.7 z-score
ATGCTTCTGGTCTTCTGGGCGTGCTAG | -0.338 z-score
TTAGTTCTCGGACTGGGTTAGTGCTAG | 0.656 z-score
GACGGGCTGCTTATCCTGACGTGCTAG | -0.809 z-score
TTAGAATTCAGTTCCGATTAGTGCTAG | 0.982 z-score
TTAGATTTCAGACTGGACTAGTGCTAG | -0.172 z-score
GACGGTTTCGACTCTCGGGACGTGCTA | 10.6 z-score
GACGATATCAGACTGAAGACGTGCTAG | -0.173 z-score
TTAGATTTCAGTATCGATTAGTGCTAG | 1.45 z-score
GACGGTCGCCTTATCCTGACGTGCTAG | -0.38 z-score

Sample 3
Target: RNA binding protein fox-1 homolog 2, RRM domain, GST-SBP tag (RBFOX2, Homo sapiens, UniProt O43251-10, residues 100-194)
Technique: RNA Bind-n-Seq
Molecule type: RNA
Matrix: in vitro
Concentration: 365 nM
Setting: natural RNA segment, single round, ends assumed
Baseline: no-protein control
Reading: higher = stronger binding
Constant ends, left off below: GGGAGUUCUACAGUCCGACGAUC … UGGAAUUCUCGGGUGCCAA
Target sequence (chain): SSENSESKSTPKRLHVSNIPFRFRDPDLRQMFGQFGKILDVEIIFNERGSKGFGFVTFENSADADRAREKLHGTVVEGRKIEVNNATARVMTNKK
Oligonucleotide | RBNS enrichment (R)
GGUUGAUCCCUCACUUGACUGAUACUUGCAUUCAAGAGAAUCUAGAUUGUGUUGGGGGAGGGACUGACUGUACUCAUGGCUAACUUAAAGUAUUAAAAUAAGGCUGUCCC | 0.37
AGCCACUCUGCCCACUAAAGUGCCCCACCAUGAAACAUUCUGGAGUUGGCCAUCCCAAAUUUCAUCGGUCCAUAGACACAAGCACAGAGCAAGAAACAAGGGCCUUAGAU | 0.688
AUAAGAUCACUUCAUUUUCAACUUAGACCCACCGUUUCUUUUUUGUUGUUUUGUUUUGUUUGGUUUGGUUUGGUUGGGUUGGGUUGUUGUUUUUGGUUUUUUCGAGACAG | 13.7
UGGCAGCAUGGGGGCCCUGCUCUUCUGGCCCGUCUCCCGGACAGGUUGAGGAAGCUGCUCCAGAAGCGCCUCGGAAGGGGAGCUCUCAUCAUGGCGCGUGCUGCUGCGGC | 2.29
CUUUGUUUAAUAAGAACCUCAUUUAAACUUGACAGCUAUGGUAUUUUUUUAAUGAUAACUUCUUUUCUGUUUAUUGUAAAACUAAGUUAAAAAUAAAAGGUUAAUGAGAA | 0.521
AUAGGCCUUCCUGGUGGUUUUGUUUAACCCCAUGACCCUCCCCAACUCUUCUCAGAGCUUUGGGGGUUAUGUGAAAGGCUGACUAGUUGAGGGUUUAGCUGCAGGGAAGG | 0.339
UCAGGGAGCAUUUCCUUUUCCUGGGAGUUAUGACCGCGAAGUUGUCAUGUGCCGUGCCCUUUUCUGUUUCUGUGUAUCCUAUUGCUGGUGACUCUGUGUGAACUGGCCUU | 0.67
UGGUUAUAAAAAUGUUAAUUCAGAAUUAGUUUAAUGCCUUAAUUAAACUAAUUAAUAGCUUUGGACACUUAAAAGAGCUCUAAAUUUGCUUGUACAUAAAGGCUUAAUUU | 2.49
UUAGCUUAUUAGAACUCUUGGUGGAGGGUGCGUACACACAUUCCAGAAAAGGCUUCACUCGCUGGGAACGUCAACCCAGCGAGAAAGGAGGGGAAGCCCCUUCUCCGGGG | 0.229
ACAUGAUGAAACCCCGUCUCUACUACAAAUACAAAAAUUAGCCGGGUGUGGUGGCACACGCCUGUAGUCCCAGCUACUGGGGAGGCUGAGGCAGCAUUGCUUGAACCCAG | 0.781
UCAGGGCCAGUGCCAUCUGUGAUUCAUGAUCACUAGGUUAUAGGUGAAAUCUCAGUAAGUUAUUUUGGAGUUUAUUAAAGGUUCACAUUUUAAGUACAACUUUUCAGGCU | 0.65
UCCGCCGCCUGCCCCAGUGUGGGGGGAGAUACCUUUACCAUGAACUUACAGAAUUAAAGAUGGCCCAUAAGGAAUUCCAGACCAAUAUUUCUUCCUGCGGUUUAUUCUAU | 0.436

Sample 4
Target: TATA-box-binding protein 1 (TBP1, Arabidopsis thaliana, UniProt P28147, residues 1-200, full length assumed)
Technique: protein-binding microarray
Molecule type: double-stranded DNA, one strand shown
Matrix: in vitro
Concentration: not given
Setting: k-mer, scored over probes, only values ≥0.25
Reading: higher = stronger binding
Residues (chain): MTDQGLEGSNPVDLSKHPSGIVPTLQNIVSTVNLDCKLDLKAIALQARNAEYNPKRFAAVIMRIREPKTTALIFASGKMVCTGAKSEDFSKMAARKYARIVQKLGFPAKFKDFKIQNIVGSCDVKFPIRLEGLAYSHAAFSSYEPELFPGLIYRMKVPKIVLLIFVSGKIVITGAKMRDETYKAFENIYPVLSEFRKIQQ
Oligonucleotide | E-score
ATATAAA | 0.488
AAATACA | 0.378
CCTATTA | 0.258
ATAGAAA | 0.275
ATTAATC | 0.35
ATAATAG | 0.364
CAATATA | 0.429
GCAATTA | 0.26
ACCTTAA | 0.26
GTCTATA | 0.338
AATACTA | 0.255
ATTATTA | 0.382
ATATCAG | 0.316
GTAAATA | 0.362
TAGTAAA | 0.251
TATACCA | 0.344
AAAAATT | 0.286
ATAAAAC | 0.37
ATTATAA | 0.464
ATATGGC | 0.264
ATATGAA | 0.313
ATATCAC | 0.27

Sample 5
Target: Sal-like protein 4, full length isoform B (SALL4, Homo sapiens, UniProt Q9UJQ4-2, residues 1-616)
Technique: universal PBM
Molecule type: double-stranded DNA, one strand shown
Matrix: in vitro
Concentration: not given
Setting: 8-mer, flanks averaged, mean of replicates
Reading: higher = stronger binding
Residues (chain): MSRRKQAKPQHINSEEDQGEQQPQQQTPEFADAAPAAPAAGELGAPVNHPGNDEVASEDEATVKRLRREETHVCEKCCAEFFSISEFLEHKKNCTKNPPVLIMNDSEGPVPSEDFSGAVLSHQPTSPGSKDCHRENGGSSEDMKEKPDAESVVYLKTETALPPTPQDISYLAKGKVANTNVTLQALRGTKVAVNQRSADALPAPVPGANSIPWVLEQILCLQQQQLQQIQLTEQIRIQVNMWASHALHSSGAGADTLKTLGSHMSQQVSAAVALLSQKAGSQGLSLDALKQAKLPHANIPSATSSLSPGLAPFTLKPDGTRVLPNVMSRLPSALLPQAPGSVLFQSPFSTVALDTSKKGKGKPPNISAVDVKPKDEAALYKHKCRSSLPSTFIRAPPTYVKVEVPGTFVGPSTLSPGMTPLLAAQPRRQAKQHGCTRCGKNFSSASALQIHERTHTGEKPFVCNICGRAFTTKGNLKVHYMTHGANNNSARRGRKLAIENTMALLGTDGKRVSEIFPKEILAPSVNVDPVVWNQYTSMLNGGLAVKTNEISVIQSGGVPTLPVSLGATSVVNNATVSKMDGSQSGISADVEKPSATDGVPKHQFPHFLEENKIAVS
Oligonucleotide | E-score
GTAACCAA | -0.0746
AGCCGGAT | -0.139
AAGTGTGC | 0.0895
TAATTAAA | 0.364
ATCACCCG | -0.211
CACGTCGA | -0.188
CTCATGAG | -0.0331
TCAAGTAA | 0.274
CCAATTCC | -0.0547
CACTGCCC | -0.218
CACAGGTC | -0.199
CGGCCTAG | -0.312
AAAATGGC | 0.202
AAAGAGGG | -0.0707
AAATGCAC | 0.0871
ACCGGTAG | -0.325
ATTACTCG | 0.226
GGTTGCAA | -0.0355
AGAGGTTG | -0.0617
ATCCCAGA | -0.123
ACGTAAAG | 0.26
CGTAGTAC | 0.061
AAGATCAT | 0.228
CTCTTTTA | 0.104
AAGGGCCT | -0.255

Excerpt of the above (sample 1):
Variant | normalised enrichment score
V8A | -0.369
Q12F | 0.143
V8Q | 0.0555
G4K | 0.129
L2D | 0.113
N11M | 0.342
L2Q | -0.0627
